# Published values pooled from the literature.
# Every numbered part comes from another study and shows a few of its results, in no order.

# Study 1
# Target: Histone acetyltransferase KAT6A, winged helix 1, GST fusion (KAT6A, Homo sapiens, UniProt Q92794, residues 1-85)
# Technique: protein binding microarray
# Molecule type: double-stranded DNA, one strand shown
# Matrix: in vitro
# Concentration: not given
# Setting: 8-mer, flanks averaged, mean of 2 arrays, mostly near background
# Relative to: not given
# Direction: higher = stronger binding
# Construct (chain): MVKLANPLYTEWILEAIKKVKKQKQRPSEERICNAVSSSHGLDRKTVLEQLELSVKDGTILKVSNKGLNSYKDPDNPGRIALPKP
Strand,E-score
ACCATGTA,-0.114
ATCACGTG,-0.162
ACACGCGA,0.102
GACATCTA,-0.132
GGGATAAC,0.0476
TCAGTTAA,-0.148
TGACGTCA,0.122
ATCCCTAA,-0.18
GTCAACAC,-0.125
ACACTGCG,0.246
ATGCGTCG,0.275
CAGGGGAC,-0.0219
TGGAACAA,-0.223
CCCAAGTC,-0.172
CAATCAAG,-0.149
CTTTGCAA,-0.168
GGTTGCAC,-0.0957
AGCGTTCG,0.00873
AAAAGCGA,0.158
CGGGCGAG,0.241
TACGGCCA,0.227
TCTCTGCA,-0.208
CTTATAGA,-0.105
ATTAGCCG,0.253
CAGTATCA,-0.107

# Study 2
# Target: RNA binding protein fox-1 homolog 2, RRM domain, GST-SBP tag (RBFOX2, Homo sapiens, UniProt O43251-10, residues 100-194)
# Technique: RNA Bind-n-Seq
# Molecule type: RNA
# Matrix: in vitro
# Concentration: 365 nM
# Setting: natural RNA segment, single round, ends assumed
# Relative to: no-protein control
# Direction: higher = stronger binding
# All sequences stand within: GGGAGUUCUACAGUCCGACGAUC … UGGAAUUCUCGGGUGCCAA
# Target sequence (chain): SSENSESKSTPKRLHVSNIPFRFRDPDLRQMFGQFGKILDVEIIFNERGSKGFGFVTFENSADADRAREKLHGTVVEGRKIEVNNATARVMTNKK
Strand,RBNS enrichment (R)
ACAACUAGAACACUCUGCCUUGGUCUCCUUAUCCAGUGCUCACCCACAGUAUGAAAUGGAUGCUUCCUCUGCCACCUGUAUACAGGGGCUUUUACUUUGCACACCUUCAU,0.315
GGAAACGUUUGAAAGUGUUUGUUUCCUUCAUAUGAACCUGUAAAAUGCUGUGUAGCUGGAGUUCACGCUCACAGCCUUUAGCGCUUUGUUGCUUGUUUUGUUUUAAUCUG,0.632
CGACAAGGACCCAGGUCUUCCUGCUGCUGCCAGGGAGAGCAGGGACAGUGCCGCGUGCGAGAUGAGCUCGAACACUGCCCGCCUUACUGCCGCCUACCCCGCCCGCCACG,0.383
CAUGGCUCUCAGACCGCGUUCCUCUUUGGCCUUCCUUCCAGCCGAGCCGUCACCAUAAGUAAAUCAAGUCCCUUCCUCCCAGUCACACGGCUGAGCGCAGACGGCUUGUU,0.286
CAUGGUUAAAACAUUAUUCUCCUAUGAUAUUCAGAUUCUAGUUCUAUAUACUUCAUUAUAUAACUUUGAAUUGAUCUGGUGCCAUGACUUUUCUACUUUCAAGAACUAUG,0.495
CAUUGGUUAUAGUCAUGGGAAAGGAAGGUGUCCACGCAGGCACAAUUAACAAGAAAACAUAUGAACUCGCUUUAUACCUGAAGAGGUCUGUAACCAACCUUUAUCUGGCA,0.393
GACUACAAGAGGAGCAACCCAGAGGAUACACUCCCCUCUCUGGUGUCUGAGGAGUGUGAACCGUUGGGGUCACUUUAGGCCCAGAGUAACUCUCCCAGAAGAAAACUUGU,0.329
CCCUUUGUCUUAAAGAAGACUAAUGUUAAUUGUUCUCAGAACUGGACGUUUUUUUUCCCCCCAUCAAAAUUAAAACUCUUUCUUUUGGAUUUAAUGAAGUAUUGCUAACU,0.898
UGACGACGACGAUGAUGAUAGCAGUGACUAAGGAUAUGCUGUGAAGUAUUUAAUUGACUGCCUGAGAGUCAGCUUUGGGGGCGCUCUCAGUUUGCUUUAGCCAUGACUGC,0.69

# Study 3
# Target: Interferon regulatory factor 3, full length, phosphomimetic (IRF3, Homo sapiens, UniProt Q14653, residues 1-427, S386D/S396D/S398D/S402D/T404D/S405D)
# Technique: protein-binding microarray
# Molecule type: double-stranded DNA, one strand shown
# Matrix: in vitro
# Concentration: 2540 nM top
# Setting: 60-bp whole probe
# Added: salmon DNA 0.4 mg/ml
# Relative to: random background probes
# Direction: higher = stronger binding
# All sequences stand within: GCCTAGCAC … GTCTTGATTCGCTTGACGCTGCTG
# Residues (chain): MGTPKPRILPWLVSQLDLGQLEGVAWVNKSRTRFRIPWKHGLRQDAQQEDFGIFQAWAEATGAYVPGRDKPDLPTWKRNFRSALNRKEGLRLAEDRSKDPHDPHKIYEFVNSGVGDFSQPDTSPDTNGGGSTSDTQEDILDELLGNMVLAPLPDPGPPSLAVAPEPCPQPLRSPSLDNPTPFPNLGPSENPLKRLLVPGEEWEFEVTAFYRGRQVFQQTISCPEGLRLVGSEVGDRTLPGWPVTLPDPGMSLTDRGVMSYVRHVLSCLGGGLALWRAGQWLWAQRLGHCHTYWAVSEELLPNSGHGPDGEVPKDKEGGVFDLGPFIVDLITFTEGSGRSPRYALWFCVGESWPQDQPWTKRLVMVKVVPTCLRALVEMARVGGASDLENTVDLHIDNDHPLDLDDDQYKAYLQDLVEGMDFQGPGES
Strand,fitted relative affinity
GACGAACTGAGCCTGGAGACGTGCTAG,-0.47 z-score
CAAGTTTGCCTCCTTCAGTCAGTGCTA,0.503 z-score
GACGGTATCGTTTTCCTGACGTGCTAG,4.85 z-score
GACGGACTGGACTACCGGGACGTGCTA,-0.515 z-score
TTAGGTTCCCTTTTCCATTAGTGCTAG,7.47 z-score
GACGCTTTCGGGACTGGGGACGTGCTA,1.84 z-score
GACGATCTCAGACTGGAGAAGTGCTAG,0.267 z-score
GATGAACTGGGGTTTCGAGACGTGCTA,0.131 z-score
GACGAACTGAGTATGGAGACGTGCTAG,-0.0975 z-score
CTCTTTCTCTGCTACCCTTTGGTGCTA,2.74 z-score
GACGGACTGCTTCTCCAGACGTGCTAG,-0.202 z-score
TGAGGTTTCGGGTTTCGGTTAGTGCTA,5.93 z-score
TTAGGTCTCCATATCCTTTAGTGCTAG,2.17 z-score
TTAGGTTTCGTGACTGGGTTAGTGCTA,2.1 z-score
GACGGTTTCCTTTTCTTGACGTGCTAG,10.5 z-score
TTCAGTCCCCTCTTCTGGATGTGCTAG,0.921 z-score
TTAGGTATCGGTCTCGGATAGTGCTAG,4.15 z-score
GACGGTTCCGGTATCGGGACGTGCTAG,3.78 z-score
GACGATCTTAGTATCGAGACGTGCTAG,0.847 z-score
GACGTTCTCGGTTTCGGGACGTGCTAG,3.79 z-score
TCATTTTTAGATTTTTTACTGTGCTAG,1.57 z-score
GACGGATTGGGGTATCGGGACGTGCTA,-0.133 z-score
CCTCCTCCCTGTTTCCATCTGTGCTAG,2.74 z-score
GATGGACTGGACACTGGGGACGTGCTA,-0.962 z-score
TTAGGTTTCGCGTATCGGTTAGTGCTA,2.28 z-score

# Study 4
# Target: RING finger protein unkempt homolog, zinc fingers 1-6, GST-SBP tag (UNK, Homo sapiens, UniProt Q9C0B0, residues 30-357)
# Sequence of UniProt Q9C0B0 (30-357, looked up): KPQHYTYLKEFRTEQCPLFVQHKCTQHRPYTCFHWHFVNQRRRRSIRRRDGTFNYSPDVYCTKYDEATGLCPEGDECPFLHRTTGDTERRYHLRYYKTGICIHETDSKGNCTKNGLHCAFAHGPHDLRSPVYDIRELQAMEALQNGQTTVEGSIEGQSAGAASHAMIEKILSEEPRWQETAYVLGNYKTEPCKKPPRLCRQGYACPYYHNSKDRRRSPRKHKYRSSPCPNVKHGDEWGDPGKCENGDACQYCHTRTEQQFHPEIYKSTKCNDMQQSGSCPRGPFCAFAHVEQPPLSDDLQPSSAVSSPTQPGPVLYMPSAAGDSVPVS
# Technique: RNA Bind-n-Seq
# Molecule type: RNA
# Matrix: in vitro
# Concentration: not given
# Setting: RNA with constant flanks, human-mouse chimeric sites, ends assumed
# Relative to: input RNA pool
# Direction: higher = stronger binding
# All sequences stand within: GGGAGUUCUACAGUCCGACGAUC … CAACAGAGGAUUGAGCAUCA
Strand,bound/input enrichment [ratio]
ACCAUUUUCGCGGUUCAGGCUUUGUGUUGUAUUUACUUACGGUAUUAAAUUAUUAUUGCCCUUAGUUUAUAAUAAGGAUAAUUGCAUUUAAAGAGGUUACUGAAUGUUACUCUGAAACUU,0.423
CCAAUUGUGGAGCAGUACUUGAAGACAAAGAAAAAUUCUAAUAAUUUAAUCAUCAAGUACAUUAGCUGCCGCCUGCUGACAUUUGUGAUUAUACUGUUAGCGUGUAUCUACUUGAGCUAU,0.275
ACACAAUAUGAGACCAACAGCAUGGACUUCAAAGUUGGGGCGGAUGGGACAGUCUUCGCCACCCGGGAGCUGCAGGUCCCCUCAGAGCAGGUGGCGUUCACGGUGACUGCAUGGGACAGC,0.436
UUCAAAGGCUGUGUUAUCUGUGUCAUUUCAUAAGUAACUCUGGGGGAGGGAAAUUCUGUUCUUUUGUUUAAUUUUCCCCCAAAUGAAGCCAAAGUGUGUGUUGAAGAAGGAAGAAUGAAU,0.164
UAAAUUAGGGCUGCCGUUUUCUGUUUCGCCCUGAGCUGCGGAAAGCCAGAAGAUUUUAUCUAGUUUGUACAAGGCUGCUGGUGUUCCCUCUUUUUUUCCACGAGGGUGUUUUUGGCUGCA,0.523
AAAGUGAUGACUAUGUUUGUCCAACGACAGGUAUUUUCGGAGAGCAAAGAUGAGAUUGCGUUAGUCCUGUUUGGUACAGAUGGCACUGACAAUCCCCUUGCUGGCAAGGACCAGUAUCAG,0.191
GGAUCUUUGGGACUGUUUUACUUAAUUGGUCAUUGAUAGCUUAACAAACAUGGAGAUAAGAUUAGAAAUCUUGACAUCAACAGGUAUUAAGCAGAAAAAACCAUGGCCACGUGUCUCCUG,0.17
AAUUUCCUGUCAUACUUUUUAGACAUUCACAUCAGACUUACAGAGCAUUGGGCCUCUUUCUAGGUUUGUGUUAUUUCUCAGCUAUGGAUAUGAUCAAAUGAGAACACUGCUUAACUAAUG,0.49
GACUUUGGGACUGGUCCUCGUAAUGCAGCCUUCUAUAGCCCUCAUGGACAUAUAUUAGUGCUGGCUGGAUUUGGAAAUCUUCGAGGACAAAUGGAAGUAUGGGAUGUGAAAAACUACAAG,0.431
GUACUGCAGCAGCAGGGAAAACUGCAGGAAGCACUGAUGCAUUAUAAGGAGGCUAUUCGAAUUAGUCCUACCUUUGCUGAUGCCUACUCUAAUAUGGGAAACACUCUAAAGGAGAUGCAG,0.317
GAUCCACAGUGGUCUGAGGAGCAACUCAUUGCUGCAAAAUUCUGUUUUGCUGGCCUUCUUAUAGGCCAGACUGAAGUGGACAUCAUGAGUCAUGCCACACAAGCUAUAUUUGAAAUACUG,0.149

# Excerpt of the above (study 1):
Strand,E-score
AGCGTTCG,0.00873
ACACGCGA,0.102
TGGAACAA,-0.223
GGTTGCAC,-0.0957
GACATCTA,-0.132
TGACGTCA,0.122
CGGGCGAG,0.241
CTTATAGA,-0.105
ATCACGTG,-0.162
